Assay results collected from several papers.
Values joined by “and” are separate records of one study, mostly repeats; a detail may differ. Numbers after ± are the reported error.
LGALS9 N-terminal CRD: Galectin-9, N-terminal CRD (LGALS9, Homo sapiens, UniProt O00182)
BPTF bromodomain: Nucleosome-remodeling factor subunit BPTF, bromodomain (BPTF, Homo sapiens, UniProt Q12830)

With `CNc1ccccc1C(=O)O[C@H]1C[C@H](n2cnc3c(N)ncnc32)O[C@@H]1COP(=O)(O)OP(=O)(O)O` the Kd was 2.55 ± 1.17 µM (Unconventional myosin-Va (Gallus gallus, UniProt Q02440, D297C/G292C/I296C/S293C/V295G); binding, ligand, stopped-flow FRET; 25 °C, together with: 4 mM EDTA).
`O=C(Cc1ccc(F)cc1)NCCOc1ccc(-c2ccc(F)cc2)nn1` gave a Kd of 0.146 µM (V-type immunoglobulin domain-containing suppressor of T-cell activation (Mus musculus, UniProt Q9D659); binding, MST).
For `O=P(O)(O)O[C@@H]1[C@@H](O)[C@H](O)[C@H](O)[C@H](O)[C@H]1OP(=O)(O)O`, the Kd was 0.432 µM (Inositol 1,4,5-trisphosphate-gated calcium channel ITPR1, IP3-binding core (Itpr1, Rattus norvegicus, UniProt P29994); binding, 3H-IP3 competition; IP3-binding core IBC).
For `C=C1C(=O)C23CC1(O)CC(OC(C)=O)C2C1(C)CCCC(C)(COC(C)=O)C1CC3O` (stereo not drawn), the Kd was 5.49 µM (NLRP3 (Homo sapiens, UniProt Q96P20); binding, SPR).
`OC[C@H]1Oc2c(I)c(I)cc3c2[C@@H](OC3)[C@H]1O` has a Kd of over 1000 µM (LGALS9 N-terminal CRD; binding, competitive fluorescence polarization; 20 °C, galectin-9 N-terminal domain 1.0 µM).
The Kd of `CC(=O)N[C@H]1[C@H](OCCCN)O[C@H](COS(=O)(=O)O)[C@@H](O[C@@H]2O[C@H](CO)[C@H](O)[C@H](O[C@]3(C(=O)O)C[C@H](O)[C@@H](NC(C)=O)[C@H]([C@H](O)[C@H](O)CO)O3)[C@H]2O)[C@@H]1O[C@@H]1O[C@@H](C)[C@@H](O)[C@@H](O)[C@@H]1O` is reported as 145 ± 10 µM (Sialic acid-binding Ig-like lectin 9, V-set domain (SIGLEC9, Homo sapiens, UniProt Q9Y336, C36S); Siglec-9 domain 1; pH 7.4, 293 K).
For `Cc1ccc(S(=O)(=O)Nc2cc(-c3ccc(C#N)s3)ccc2C)cc1`, the Kd was 22.6 µM (Tubulin beta chain/TUBA1B, beta subunit (Sus scrofa, UniProt P02554+Q2XVP4); binding).
The Kd of `CCC(C)/C=C/C(C)=C\C=C\C(C)=C\C=O` (stereo not drawn) is reported as 0.1 µM (Rhodopsin, apoprotein (opsin) (RHO, Bos taurus, UniProt P02699); Trp fluorescence quenching; opsin membranes; titration up to 1 µM).
With `COc1cncc(-c2cc(F)cc(CNC(=O)c3cc(N4CC[C@@](C#N)(C5CC5)C4=O)cc(C)n3)c2)c1` the Kd was 0.0786 µM and 0.0964 µM (Proline--tRNA ligase (Plasmodium falciparum, UniProt Q8I5R7); binding, microscale thermophoresis).
`CN(C)CCNC(=O)c1cccc2c(NCCCCc3c(N)nc(N)nc3N)c3ccccc3nc12` gave a Kd of 478 ± 85 µM ((CCUG)6 RNA; binding, ITC; 25 °C, binding site 2).
For `C[Si](C)(C)c1cc2c3c(c1)O[C@H](CO)[C@H](O)[C@@H]3OC2`, the Kd was 2800 µM (Galectin-9 (LGALS9, Homo sapiens, UniProt O00182); cell-free assay, FP).
`CC(=O)NCCCC[C@H](NC(=O)[C@H](C)NC(=O)[C@H](CCCCN)NC(=O)CNC(=O)[C@H](CO)NC(=O)[C@H](CC(=O)O)NC(=O)[C@H](CCCCN)NC(=O)CNC(=O)[C@H](C)NC(=O)[C@H](CCCCN)NC(=O)CNC(=O)CNC(=O)[C@H](C)NC(=O)[C@@H](N)Cc1ccc(O)cc1)C(=O)N[C@H](C(=O)N[C@@H](CCCCNC(C)=O)C(=O)N[C@@H](C)C(=O)N[C@H](C(=O)N[C@@H](CO)C(=O)N[C@@H](CCCNC(=N)N)C(N)=O)C(C)C)[C@@H](C)O` gave a Kd of 830 µM (BPTF bromodomain; bromodomain binding, PrOF NMR titration; pH 7.4, 5-fluorotryptophan-labelled bromodomain, 40-50 µM).
For `O=C(Cc1cccc(C(F)(F)F)c1)Nc1cc(Oc2c(F)cc3nc(NC(=O)C4CC4)sc3c2Cl)ccc1F`, the Kd was over 5 µM (RIPK3 (Homo sapiens, UniProt Q9Y572); binding, competition with immobilised ligand).
The Kd of `COc1cc(CC(=O)O)ccc1O` is reported as 39.5 ± 5.75 µM (p-hydroxyphenylacetate 3-hydroxylase, reductase component (C1-hpah, Acinetobacter baumannii, UniProt Q6Q271); ITC; pH 7, together with: 1 mM FMN).
With `CC[C@H](C)[C@H](NC(=O)[C@H](CCCCN)NC(=O)[C@H](CCCCN)NC(=O)[C@@H](NC(=O)[C@H](CCC(=O)O)NC(=O)[C@H](CCC(=O)O)NC(=O)[C@H](CCC(=O)O)NC(=O)[C@H](CO)NC(=O)[C@H](CC(C)C)NC(=O)[C@H](CC(=O)O)NC(=O)[C@H](CC(C)C)NC(=O)[C@H](C)NC(=O)[C@H](CCCNC(=N)N)NC(=O)[C@H](CC(C)C)NC(=O)[C@H](CO)NC(=O)CNC(=O)CNC(=O)CNC(=O)CCCC[C@@H]1SC[C@@H]2NC(=O)N[C@@H]21)C(C)C)C(=O)N[C@@H](CC(C)C)C(=O)N[C@@H](CC(=O)O)C(=O)N[C@@H](CCC(=O)O)C(=O)N[C@H](C(=O)N[C@H](C(=O)N[C@@H](CCCCN)C(=O)N[C@@H](CC(=O)O)C(=O)O)C(C)C)[C@@H](C)CC` the Kd was 2.4 ± 0.26 µM (Fab B11 antibody (human); binding, biolayer interferometry; together with: biotinylated peptide on tips).
For `OC[C@H]1Oc2cc(I)cc3c2[C@@H](OC3)[C@H]1O`, the Kd was over 2000 µM (LGALS9 N-terminal CRD; binding, competitive fluorescence polarization; 20 °C, galectin-9 N-terminal domain 1.0 µM).
The Kd of `CC(=O)NCCCC[C@H](NC(=O)CNC(=O)[C@H](CO)NC(=O)[C@H](CC(=O)O)NC(=O)[C@H](CCCCN)NC(=O)CNC(=O)[C@H](C)NC(=O)[C@H](CCCCN)NC(=O)CNC(=O)CNC(=O)[C@H](C)NC(=O)[C@@H](N)Cc1ccc(O)cc1)C(=O)N[C@@H](C)C(=O)N[C@@H](CCCCN)C(=O)N[C@@H](C)C(=O)N[C@@H](CCCCN)C(=O)N[C@@H](C)C(=O)N[C@H](C(=O)N[C@@H](CO)C(=O)N[C@@H](CCCNC(=N)N)C(N)=O)C(C)C` is reported as 1360 µM (BPTF bromodomain; bromodomain binding, PrOF NMR titration; pH 7.4, 5-fluorotryptophan-labelled bromodomain, 40-50 µM).
The Kd of `C#CCN(CC(=O)N(CCOC)CC(=O)N(CCOC)CC(N)=O)C(=O)CN(CCOC)C(=O)CN(CCCOC)C(=O)CN(Cc1ccc(F)cc1)C(=O)[C@H](C)N(CC1CC1)C(=O)[C@H](C)NCc1ccc(S(N)(=O)=O)cc1` is reported as 1.1 µM (MMP14 (Homo sapiens, UniProt P50281); binding, FP).
The Kd of `CC(=O)N[C@@H](Cc1ccccc1)C(=O)N[C@@H](Cc1ccccc1)C(=O)N[C@H](/C=C1\CCC[C@H]1C(=O)N[C@@H](CCCNC(=N)N)C(N)=O)COP(=O)(O)O` is reported as 78 ± 23 µM (Peptidyl-prolyl cis-trans isomerase NIMA-interacting 1, PPIase domain (PIN1, Homo sapiens, UniProt Q13526); binding, NMR chemical shift titration; PPIase domain without WW).
For `C[n+]1ccc(/C=N/NC(=O)c2cncc(C(=O)N/N=C/c3cc[n+](C)c4ccccc34)n2)c2ccccc21`, the Kd was 0.0139 ± 0.0014 µM (G-quadruplex DNA myc22; fluorimetric titration; pH 7.2, 100 mM KCl, together with: Cy5-labelled DNA 2 nM).
With `CCN(CC)C1CCN(Cc2cc(C#CCN)cc(I)c2O)CC1` the Kd was about 1100 µM (TP53 (Homo sapiens, UniProt P04637, M133L/N239Y/N268D/V203A/Y220C)).
With `C[C@@H](O)[C@@H]1NC(=O)[C@H](CCCCN)NC(=O)[C@@H](Cc2c[nH]c3ccccc23)NC(=O)[C@H](Cc2ccc(O)cc2)NC(=O)[C@H](NC(=O)[C@H](Cc2ccc([N+](=O)[O-])cc2)NC(=O)CN2CCCN3CCN(CCCN(CC(=O)O)CC3)CC2)CSSC[C@@H](C(=O)N[C@H](Cc2ccc(O)cc2)C(N)=O)NC1=O` [copper-64 labelled] the Kd was 0.026 ± 0.0024 µM (Somatostatin receptor type 2 (Rattus norvegicus, UniProt P30680); saturation binding; AR-42J cell membranes).
With `CC(=O)N[C@@H]1[C@@H](O[C@@H]2O[C@H](C(=O)O)[C@@H](O[C@@H]3O[C@H](COS(=O)(=O)O)[C@@H](OS(=O)(=O)O)[C@H](O[C@@H]4O[C@H](C(=O)O)[C@@H](O[C@@H]5O[C@H](COS(=O)(=O)O)[C@@H](OS(=O)(=O)O)[C@H](O[C@@H]6O[C@H](C(=O)O)[C@@H](OS(=O)(=O)O)[C@H](OS(=O)(=O)O)[C@H]6OS(=O)(=O)O)[C@H]5NC(C)=O)[C@H](OS(=O)(=O)O)[C@H]4OS(=O)(=O)O)[C@H]3NC(C)=O)[C@H](OS(=O)(=O)O)[C@H]2OS(=O)(=O)O)[C@H](OS(=O)(=O)O)[C@@H](COS(=O)(=O)O)O[C@H]1N=[N+]=[N-]` the Kd was 0.003 µM (FGF1 (Homo sapiens, UniProt P05230); ligand displacement, FP).
`CN1C(=O)C(O)(C(=O)O)Oc2ccccc21` (stereo not drawn) has a Kd of 2.79 µM (Dihydroxy-acid dehydratase, chloroplastic (DHAD, Arabidopsis thaliana, UniProt Q9LIR4); microscale thermophoresis).
